Assay results pooled from the literature.
Compare with care: the assays were run in different laboratories.
Organism: Pseudomonas aeruginosa

Structure (SMILES)	assay	test system	conditions	MIC
CC[C@H](C)[C@H](NC(=O)[C@H](CCCCN)NC(=O)[C@@H]1CCCN1C(=O)[C@@H](NC(=O)[C@H](CC(C)C)NC(=O)[C@H](CCCCN)NC(=O)[C@H](CC(C)C)NC(=O)[C@@H](NC(=O)[C@H](CO)NC(=O)CNC(=O)[C@H](Cc1ccccc1)NC(=O)[C@@H](N)Cc1ccccc1)C(C)C)[C@@H](C)CC)C(=O)N[C@@H](CC(C)C)C(N)=O	broth microdilution			> 100 µM
CC1C(=NOCc2cc(-c3ccc(Cl)cc3)no2)C(C)C(c2ccc(Br)cc2)OC1c1ccc(Br)cc1 (stereo not shown)	microbial growth, broth dilution	MTCC741	24 h	6.3 mg/L
N=C(N)NCCC[C@@H]1NC(=O)[C@H](CCCNC(=N)N)NC(=O)[C@H](CCCNC(=N)N)NC(=O)[C@H](CCCNC(=N)N)NC(=O)[C@H](Cc2c[nH]c3ccccc23)NC(=O)[C@H](CCCNC(=N)N)NC(=O)[C@H](CCCNC(=N)N)NC(=O)[C@@H](N)CCn2cc(nn2)C[C@@H](C(N)=O)NC1=O		ATCC 27853	24 h, 37 °C	250 mg/L
CC(C)[C@@H]1NC(=O)[C@@H]2CCCN2C(=O)[C@@H](C)NC(=O)[C@H](CO)NC(=O)[C@H](C)NC(=O)[C@H](C(C)(C)C)NC(=O)[C@H](CCO)NC(=O)[C@H](Cc2c[nH]c3ccccc23)NC(=O)[C@H](CCO)NC(=O)[C@@H](CCN)NC(=O)[C@H](CCC(N)=O)NC(=O)[C@H](CCN)NC(=O)[C@H](Cc2ccc(O)cc2)NC(=O)[C@H]([C@@H](C)O)NC1=O	broth microdilution	ATCC 27853, CAMHB with polysorbate-80	16 h	> 64 mg/L
CC(C)C[C@@H]1NC(=O)[C@H](CC(C)C)NC(=O)[C@H](CCCCN)NC(=O)CSC[C@@H]2NC(=O)[C@H](CC(C)C)NC(=O)[C@H](CCCCN)NC(=O)[C@H](CCCCNC1=O)NC(=O)[C@H](CC(C)C)NC(=O)[C@H](CC(C)C)NC(=O)[C@H](CCCCN)NC(=O)CSC[C@@H](C(N)=O)NC(=O)[C@H](CC(C)C)NC(=O)[C@H](CCCCN)NC(=O)[C@H](CCCCN)NC2=O		PAO1	18 h	> 256 mg/L
CCN1CCC(CCNCc2cc3ccccc3nc2SCc2ccccc2)CC1	microbial growth, broth dilution	MDR		32 mg/L
CCCCCCCC(O)CC(=O)N[C@H](CCN)C(=O)N[C@H]1CCNC(=O)[C@H](CC(C)C)NC(=O)[C@H](CCN)NC(=O)[C@H](CCN)NC(=O)[C@H](CC(C)C)NC(=O)[C@@H](CC(C)C)NC(=O)[C@H](CCN)NC1=O (stereo partly shown)	broth microdilution	FADDI-PA070, polymyxin resistant, CAMHB	18 h, 37 °C	2 mg/L
CC(C)C[C@@H]1NC(=O)[C@H](CCCCN)NC(=O)CSC[C@@H](C(=O)N[C@@H](CCCCN)C(N)=O)NC(=O)[C@H](CCCCN)NC(=O)[C@H](CC(C)C)NC(=O)[C@H](CC(C)C)NC(=O)[C@@H]2CSCC(=O)N[C@@H](CCCCN)C(=O)N[C@@H](CC(C)C)C(=O)N[C@@H](CCCCN)C(=O)N[C@@H](CCCCNC(=O)[C@H](CCCCN)NC1=O)C(=O)N[C@@H](CCCCN)C(=O)N[C@@H](CC(C)C)C(=O)N[C@@H](CC(C)C)C(=O)N2		PAO1	18 h	64 mg/L
N=C(N)NCCC[C@@H]1NC(=O)[C@H](CCCNC(=N)N)NC(=O)[C@H](CCCNC(=N)N)NC(=O)[C@H](Cc2c[nH]c3ccccc23)NC(=O)[C@H](Cc2c[nH]c3ccccc23)NC(=O)[C@H](Cc2c[nH]c3ccccc23)NC(=O)[C@H](CCCNC(=N)N)NC1=O	broth microdilution	PAO1	37 °C	37 mg/L
CC[C@H](C)[C@H](NC(=O)[C@H](Cc1c[nH]cn1)NC(=O)[C@H](CCCCNC(=O)[C@@H](NC(=O)[C@H](CCCCN)NC(=O)CSC[C@H](NC(=O)[C@H](Cc1ccccc1)NC(=O)[C@H](CCCCNC(=O)[C@H](CC(C)C)NC(=O)[C@H](CCCCN)NC(=O)[C@H](CCCCN)NC(=O)C[C@@H]1O[C@@H](C)[C@@H](O)[C@@H](O)[C@@H]1O)NC(=O)[C@H](CC(C)C)NC(=O)[C@H](CCCCN)NC(=O)[C@H](CCCCN)NC(=O)CCS[C@@H]1O[C@H](CO)[C@H](O)[C@H](O)[C@H]1O)C(N)=O)[C@@H](C)CC)NC(=O)[C@@H](NC(=O)[C@H](CCCCN)NC(=O)CSC[C@H](NC(=O)[C@H](Cc1ccccc1)NC(=O)[C@H](CCCCNC(=O)[C@H](CC(C)C)NC(=O)[C@H](CCCCN)NC(=O)[C@H](CCCCN)NC(=O)C[C@@H]1O[C@@H](C)[C@@H](O)[C@@H](O)[C@@H]1O)NC(=O)[C@H](CC(C)C)NC(=O)[C@H](CCCCN)NC(=O)[C@H](CCCCN)NC(=O)CCS[C@@H]1O[C@H](CO)[C@H](O)[C@H](O)[C@H]1O)C(N)=O)[C@@H](C)CC)C(N)=O		PAO1, LB medium		> 64 µM

Excerpt of the above:
Structure (SMILES)	assay	test system	conditions	MIC
CCCCCCCC(O)CC(=O)N[C@H](CCN)C(=O)N[C@H]1CCNC(=O)[C@H](CC(C)C)NC(=O)[C@H](CCN)NC(=O)[C@H](CCN)NC(=O)[C@H](CC(C)C)NC(=O)[C@@H](CC(C)C)NC(=O)[C@H](CCN)NC1=O (stereo partly shown)	broth microdilution	FADDI-PA070, polymyxin resistant, CAMHB	18 h, 37 °C	2 mg/L
